Assay results gathered from unrelated publications.
Each line is one published result; not all experiments were run side by side. “And” joins repeats or separate records; there may be more than shown. Numbers after ± are the reported error. Converted amounts (≈) assume the structure as drawn.
Organism: Aspergillus fumigatus

Compound | test | test system | conditions | how to read | endpoint | value
COC(=O)C1=C(C)NC(C)=C(C(=O)OC(C)(C)CN(C)CCC(c2ccccc2)c2ccccc2)C1c1cccc([N+](=O)[O-])c1 (stereo not drawn) | Alamar blue |  | 1.95 µg/mL, 48 h, added: caspofungin 0.2 µg/mL |  | metabolic activity | 63% and 56.8%
C#Cc1ccc(O)c(C=NNC(=O)c2ccc(Br)cc2Br)c1 |  | 293 | unit not given, added: voriconazole | lower = more synergy | FICI | 2
CC(C)(C)Cn1c(N)nc2ccc(-c3[nH]c(C(C)(C)C)nc3-c3ccc(F)cc3)nc21 |  |  | 20 µM | relative to: untreated | metabolic activity | ≥ 80%
CC[C@@H](C)[C@H]1O[C@@H](c2c(O)c(-c3ccccc3)cn(OC)c2=O)[C@H](C)C[C@@H]1C | cell growth | ATCC 90906 |  |  | IC50 | > 20 mg/L
OC(Cn1cncn1)(Cn1cncn1)c1ccc(F)cc1F | broth microdilution |  |  |  | MLC | 16 ± 2 mg/L (≈ 52.2 µM)
C#Cc1cccc(C=NNC(=O)c2ccc(Br)cc2)c1O |  | 293 | unit not given, added: voriconazole | lower = more synergy | FICI | 2
O=[N+]([O-])[O-].[Ag+] | broth microdilution, turbidity | ATCC 13073 | 24 h, as nitrate salt |  | MIC | 0.4 mg/L
CC[C@H](C)C[C@H](C)CCCCCCCCC(=O)N[C@H]1C[C@@H](O)[C@@H](NCCN)NC(=O)[C@@H]2[C@@H](O)CCN2C(=O)[C@H]([C@H](O)CCN)NC(=O)[C@H]([C@H](O)[C@@H](O)c2ccc(O)cc2)NC(=O)[C@@H]2C[C@@H](O)CN2C(=O)[C@H]([C@@H](C)O)NC1=O | broth microdilution | BNCC 122691 |  |  | MIC | 2 mg/L (≈ 1.83 µM)
C#Cc1ccc(O)c(C=NNC(=O)c2cc(Br)cc(Br)c2O)c1 |  | 293 | unit not given, added: voriconazole | lower = more synergy | FICI | 2

A few entries again:
Compound | test | test system | conditions | how to read | endpoint | value
CC[C@@H](C)[C@H]1O[C@@H](c2c(O)c(-c3ccccc3)cn(OC)c2=O)[C@H](C)C[C@@H]1C | cell growth | ATCC 90906 |  |  | IC50 | > 20 mg/L
